Assay results of several laboratories.
A part holds a random share of what one study measured. Changes are numbered by the printed parent chain.

Block 1
Target: RNA binding protein fox-1 homolog 2, RRM domain, GST-SBP tag (RBFOX2, Homo sapiens, UniProt O43251-10, residues 100-194)
Technique: RNA Bind-n-Seq
Form: RNA
Matrix: in vitro
Concentration: 365 nM
Notes: natural RNA segment, single round, ends assumed
Reference: no-protein control
Direction: higher = stronger binding
Measurement: RBNS enrichment (R)
All sequences stand within: GGGAGUUCUACAGUCCGACGAUC … UGGAAUUCUCGGGUGCCAA
Construct (chain): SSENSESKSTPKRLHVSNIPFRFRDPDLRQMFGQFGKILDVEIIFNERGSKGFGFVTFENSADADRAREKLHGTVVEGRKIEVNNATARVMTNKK
UUAUUUUUCUCACUCGAAGAAACUAUAUAGGGUUGUUUUUCCUUUAGCUUGUGCUCAAGUCCUCUUGCUGUGUUUUCAGAAGCACUCACAUGUUCUUUCUUUUCCUGAGU: 0.378
AGCCACUGAGAGACUCCUUUGAGGGGGGUCACUGUGCUGUAGGUUAUUUUCCUCCACCCCACUUACUGUGAUGGGGCAAGGGAAGAACCCAGUCUUGUCCCCUGAAUUUU: 0.228
UCUCUAGCUACCCACAAGGGAAGUGUAUAGCAUAAAAAGUCUAAGUAGCAUAUCCUGUCCUGAAAGUGUGUGUAGUUUUACUUGUUCAACAGAAUGUCCGACAGCAUCCU: 5.03
GACUCAAGAAAAUUAGACCACAAAUUUUGCAUUGUUCAUUGUAGCACUAUUGGUAAUAAAAUAACAAAUGUUUGUGCAUUUUUAUGUGAAGAUCCUUCUCGUAUUUCAUU: 0.523
AAUCCUAUGUCAGCUCUCUUAGGAAGCCCCAGUACUUAUAUUGGGCAUGCACUUGCCCUUAAAAACAAUGAUUUGUGAGUCCAGGAACAAUUUACUAUUUUUAAAAUAUU: 0.834
AAGAUUUUGGUGAGGAAUAAUAGUAUAUAGUUUAAGUAUUGACAAAACUUUGAAAGUUUCUUUCUUUAAAAUGGGAAAUACUCAAUAUCUAAAUCCAGGUCAGGCAUGGG: 1.11
UGAAACUCAUAGCAAUAAUGCUAUGCUGUUGUGAUCCCUCUCAAGUUCUGCAUUUAAAAUAUAUUUUUUCUUUAUAGGAAUUGAUGUAUACCAUGAAGUCAUUGUCAGUU: 0.383
UAAGGAUAGCUUCUAGGGAUAUUAGUAAUAGAUUGCCAUGAUCCUGAAGCCUCUUCUCAGAACACUGUGAAGAUAAUACUGACAGUAGAAUCAGUGAAAACAGCCUAACA: 0.44
GGCGCCAGCCUGAAGCUGCCAGGCCCUGAGGUUCAGACCCUGGACCCCAUAGCUGGAGGCCUGUGGUGCCAGAAGCCCAGAUUAGGGUGGCUGUCCAUCCCUGGAUAGCU: 0.206
AAGGAGAAAGGCACUUGUGUGCUAAGUGAUGGCCCACCCUCACCACCAUCACCCUCUCUGUCCCUCCUCAGCCACGCCCAAGUGUACUGGGAUACCUAAGGACCAAUGUU: 0.354
UCAGCUUUUGAUUUCCAUGGCCCCACCAUUUAUGUGCAAGAUUUGCAAUGGUUGUCAGCUUCCUCUGAAGACCGAGCUUGACGCCUCCAUGCCAGCUGCCGUUGGAGACG: 0.471
AGAGGCCAUGUUGGGGGGACAGCCAUUGAGUUUAUUCCUUUACCUCAUGUGACCCCAGCAACUUUGGUGAUACUGAGAGGCCAGCAGGCAGUAGAGUGGACACCUCGGCC: 0.434

Block 2
Target: ABI1, truncated, D143A, DHFR fusion (Arabidopsis thaliana)
Technique: DHFR PCA, deep sequencing
Matrix: yeast
Notes: methotrexate growth selection, single substitutions
With: (+)-ABA 17 µM
Reference: wild-type fitted maximum
Direction: higher = stronger binding
Measurement: relative binding score
Starting sequence: PYL1, truncated, DHFR fusion (Arabidopsis thaliana); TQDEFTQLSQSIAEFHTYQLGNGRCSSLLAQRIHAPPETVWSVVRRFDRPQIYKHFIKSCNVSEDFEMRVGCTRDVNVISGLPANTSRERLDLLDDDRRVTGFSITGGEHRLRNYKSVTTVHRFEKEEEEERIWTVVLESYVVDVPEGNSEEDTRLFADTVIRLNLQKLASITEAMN; partner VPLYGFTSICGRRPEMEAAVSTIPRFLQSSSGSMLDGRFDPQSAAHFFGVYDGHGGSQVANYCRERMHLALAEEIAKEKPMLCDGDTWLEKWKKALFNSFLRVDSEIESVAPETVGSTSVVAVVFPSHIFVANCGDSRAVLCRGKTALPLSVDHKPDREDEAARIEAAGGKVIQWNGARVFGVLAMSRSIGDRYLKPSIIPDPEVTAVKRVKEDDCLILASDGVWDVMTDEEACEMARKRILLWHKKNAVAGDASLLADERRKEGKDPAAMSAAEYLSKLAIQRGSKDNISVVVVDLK
D3N: 67.8%
E89V: -5.72%
Y53H: 63.3%
A158K: 9.5%
M176L: 80.3%
F66E: 70.6%
V121T: 11.6%
R155S: 33.4%
E151M: 81.5%
T154D: -14.6%
D92Y: 13.2%
S26N: 63.2%
T106F: 86.1%
T73G: 28.8%
N77V: 86.9%
R90Q: 72.7%
S104N: 10.5%
N114V: -1.25%

Block 3
Target: Fragile X messenger ribonucleoprotein 1, C-terminal low-complexity region (Fmr1, Mus musculus, UniProt P35922)
Technique: RNA Bind-n-Seq
Form: RNA
Matrix: in vitro
Concentration: 200 nM
Notes: whole 134-nt RNA, ends assumed
With: 150 mM KCl
Reference: input library
Direction: higher = stronger binding
Measurement: log2 enrichment
All sequences stand within: GGGAGUUCUACAGUCCGACGAUC … UGGAAUUCUCGGGUGUCAAGG
CACAGACAACACGCACCCACACAGACACAGAGGGAAGGGGUUGGGAUGGAAACAGGGUGCACAGCAGGGCGGGGUAGGACCCCAGCCCCU: 0.679
CCUGUGCUACACAUCGUAUGUACCGAAUCGGAAAAAAAGGGAAAAAAAGGGAAAAAAAGGGAAAGUAUUAUGUUACGCCGUUCGGAUCUG: -1.21
UGGCCCUGGUGGCAUGCGGGGAGGAAGAGGUGGCCGCAUGGAUCGUGGUGGUCCCGGUGGAAUGUUCAGAGGUGGCCGUGGUGGAGACAG: 0.284
CACAGACAACACGCACCCACACAGACACAGAGGGAAGGGGUUGGGAUGGGGACAGGGUGCACGGCAGGGCGGGGUAGGACCCCAGCCCCU: 1.22
UGGCGCUGUCCUGGACUUGAUGGGGGAUGAAGCCCAGAACCUGACGAGGGGCCGGCAGCAGCUCAAGUGGUGAGUGAUCGAGUGAGCCGC: -0.383
UCAAGUCCUGUGCUACACAUCGUAUGUACCGAAUCGGGUUUGGGUUUGGUUUGGGAAAGUAUUAUGUUACGCCGUUCGGAUCUGCACUUC: -0.183
AGUCCUGUGCUACACAUCGUAUGUACCGAAUCGUGUGUGUGUGUGUGUGUGUGUGUGUAAAGUAUUAUGUUACGCCGUUCGGAUCUGCAC: 0.536
AGUCCUGUGCUACACAUCGUAUGUACCGAAUCGGUUUUUGGUUUUUGGUUUUUUUGGAAAGUAUUAUGUUACGCCGUUCGGAUCUGCACU: -1.03
AAGUCCUGUGCUACACAUCGUAUGUACCGAAUCGGGAGGGAAAGGGUUUUUUUGGGAAAGUAUUAUGUUACGCCGUUCGGAUCUGCACUU: 0.665
AGUCCUGUGCUACACAUCGUAUGUACCGAAUCGGGGUUUUUGGUUUUUGGGUUUUUGGAAAGUAUUAUGUUACGCCGUUCGGAUCUGCAC: -0.292
UCAAGUCCUGUGCUACACAUCGUAUGUACCGAAUCGGGAAAAAGGGUGGGUGGGAAAGUAUUAUGUUACGCCGUUCGGAUCUGCACUUCC: 1.09
UCAAGUCCUGUGCUACACAUCGUAUGUACCGAAUCGGAAAAAAAGGUUUGGAGGAAAGUAUUAUGUUACGCCGUUCGGAUCUGCACUUCC: -1.03
CCUCAAGUCCUGUGCUACACAUCGUAUGUACCGAAUCGGGGCGGGGCGGCGGGAAAGUAUUAUGUUACGCCGUUCGGAUCUGCACUUCCA: 0.762
AGUCCUGUGCUACACAUCGUAUGUACCGAAUCGGGGUUUUUGGGGUGGGGUUUGGGGAAAGUAUUAUGUUACGCCGUUCGGAUCUGCACU: 0.963

Block 4
Target: UBE2D1 UBC core domain (UniProt P51668)
Technique: yeast two-hybrid
Matrix: yeast
Notes: mostly zero background
Reference: not given
Direction: higher = stronger interaction
Measurement: lacZ reporter activity
B1: ARK2C RING domain (UniProt Q6ZSG1); chain EGEESDTDEKCTICLSMLEDGEDVRRLPCMHLFHQLCVDQWLAMSKKCPICRVDIETQLGAD
B2: TRIM63 RING domain (UniProt Q969Q1); chain PMENLEKQLICPICLEMFTKPVVILPCQHNLCRKCANDIFQAANPYWTSRGSSVSMSGGRFRCPTCRHEVIMDRHGV
B3: ZNF598 RING domain (UniProt Q86UK7); chain AAAPERGGGSCVLCCGDLEATALGRCDHPVCYRCSTKMRVLCEQRYCAVCREELRQVVFGK
B4: RNF25 RING domain (UniProt Q96BH1); chain LTDNNIPHGQCVICLYGFQEKEAFTKTPCYHYFHCHCLARYIQHMEQELKAQGQEQEQERQHATTKQKAVGVQCPVCREPLVYDLASL
Residues (chain): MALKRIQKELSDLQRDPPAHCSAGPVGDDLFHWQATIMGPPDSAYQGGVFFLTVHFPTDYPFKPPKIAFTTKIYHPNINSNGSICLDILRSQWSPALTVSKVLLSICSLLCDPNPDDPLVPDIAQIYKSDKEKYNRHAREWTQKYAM
B1 (ARK2C RING domain): 5120
KTLSRFGIQPCSICLGDAKDPVCLPCDHVHCLRCLRAWFASEQMICPYCLTALPDEFSPA (RNF213 RING domain (UniProt Q63HN8)): 0
B2 (TRIM63 RING domain): 0
YWAMDSTFELCKICAESNKDVKIEPCGHLLCSCCLAAWQHSDSQTCPFCRCEIKGWEAVS (CBLC RING domain (UniProt Q9ULV8)): 0
B3 (ZNF598 RING domain): 0
FPEHFVKSISCQICEHILADPVETNCKHVFCRVCILRCLKVMGSYCPSCRYPCFPTDLES (RAG1 RING domain (UniProt P15918)): 0
DDENSDNSNECVVCLSDLRDTLILPCRHLCLCTSCADTLRYQANNCPICRLPFRALLQIR (MGRN1 RING domain (UniProt O60291)): 0
QHHELTSLFECPVCFDYVLPPILQCQAGHLVCNQCRQKLSCCPTCRGALTPSIRNL (SIAH2 RING domain (UniProt O43255)): 0
PEELQAMDNVCIICREEMVTGAKRLPCNHIFHTSCLRSWFQRQQTCPTCRMDVLRASLPA (SYVN1 RING domain (UniProt Q86TM6)): 0
B4 (RNF25 RING domain): 5380
EDEVSDNSAECVVCLSDVRDTLILPCRHLCLCNTCADTLRYQANNCPICRLPFRALLQIR (RNF157 RING domain (UniProt Q96PX1)): 5330
QLRRLQEERTCKVCMDKEVSIVFIPCGHLVVCKDCAPSLRKCPICRSTIKGTVRTF (BIRC3 RING domain (UniProt Q13489)): 0
RLTMMWEEVTCPICLDPFVEPVSIECGHSFCQECISQVGKGGGSVCPVCRQRFLLKNLRP (TRIM21 RING domain (UniProt P19474)): 0
QLRRLQEERTCKVCMDKEVSVVFIPCGHLVVCQECAPSLRKCPICRGIIKGTVRTF (BIRC2 RING domain (UniProt Q13490)): 0
